# Assay results of several laboratories.
# Every numbered part comes from another study and shows a few of its results, in no order. Substitutions count along the parent as printed.

# Set 1 — method: protein-binding microarray; form: double-stranded DNA, one strand shown; matrix: in vitro; concentration: 2200 nM top; notes: 60-bp whole probe; together with: salmon DNA 0.4 mg/ml; reference: random background probes; reading: higher = stronger binding; all sequences stand within: GCCTAGCAC … GTCTTGATTCGCTTGACGCTGCTG
# Target: Interferon regulatory factor 7, full length, phosphomimetic (IRF7, Homo sapiens, UniProt Q92985, residues 1-503, S471D/S472D/S475D/S476D/S477D/S483D/S484D/S487D)
# Sequence of UniProt Q92985 (whole entry, unmodified, looked up): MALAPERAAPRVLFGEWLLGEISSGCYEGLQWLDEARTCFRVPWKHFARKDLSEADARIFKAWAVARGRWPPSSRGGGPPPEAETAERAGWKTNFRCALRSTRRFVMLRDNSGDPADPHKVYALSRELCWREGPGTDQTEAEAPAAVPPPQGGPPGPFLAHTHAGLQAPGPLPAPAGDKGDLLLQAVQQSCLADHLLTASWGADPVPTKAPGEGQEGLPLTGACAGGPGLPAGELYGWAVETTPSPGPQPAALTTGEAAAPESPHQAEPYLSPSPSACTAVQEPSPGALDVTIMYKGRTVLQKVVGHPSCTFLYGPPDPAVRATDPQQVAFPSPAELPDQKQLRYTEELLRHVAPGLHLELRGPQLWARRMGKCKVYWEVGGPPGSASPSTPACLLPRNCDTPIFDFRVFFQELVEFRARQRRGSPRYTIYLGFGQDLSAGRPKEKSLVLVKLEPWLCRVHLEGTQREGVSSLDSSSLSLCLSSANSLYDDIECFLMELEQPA
Oligonucleotide,fitted relative affinity [z-score]
TCCTGTATGGATGTGTCTTAGTGCTAG,0.844
GACGGTATGGGTTTCGGGACGTGCTAG,1.33
GACGGACTGCATATCCTGACGTGCTAG,0.189
TTAGGTTTCGACACTGGGTTCGTGCTA,2.39
CAAAACATCATTGTCATATAGTGCTAG,-0.0158
TTAGATATCAGTTTCGATAAGTGCTAG,2.7
GACGATATTGGGTATCGAGACGTGCTA,0.174

# Set 2 — method: DHFR PCA, deep sequencing; matrix: yeast; together with: (+)-ABA 0.11 µM; reference: wild-type fitted maximum; reading: higher = stronger binding
# Target: ABI1, truncated, D143A, DHFR fusion (Arabidopsis thaliana)
# Notes: methotrexate growth selection, single substitutions
# Starting sequence: PYL1, truncated, DHFR fusion (Arabidopsis thaliana); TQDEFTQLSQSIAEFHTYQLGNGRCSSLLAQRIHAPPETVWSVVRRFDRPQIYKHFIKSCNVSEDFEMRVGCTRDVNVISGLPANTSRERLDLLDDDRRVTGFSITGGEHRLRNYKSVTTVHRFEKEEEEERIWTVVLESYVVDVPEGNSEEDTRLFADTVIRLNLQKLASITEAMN; partner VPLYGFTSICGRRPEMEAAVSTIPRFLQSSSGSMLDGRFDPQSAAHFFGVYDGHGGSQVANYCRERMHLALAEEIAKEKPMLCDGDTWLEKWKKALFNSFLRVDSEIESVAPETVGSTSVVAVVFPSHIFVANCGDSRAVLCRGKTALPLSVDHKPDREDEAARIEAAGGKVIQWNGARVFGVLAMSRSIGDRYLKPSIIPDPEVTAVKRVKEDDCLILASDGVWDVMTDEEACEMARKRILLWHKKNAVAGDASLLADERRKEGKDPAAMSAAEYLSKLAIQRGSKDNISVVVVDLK
Substitution,relative binding score [%]
R90W,-0.912
R123L,8.4
V40Y,-6.98
L8I,12.6

# Set 3 — target: CCNB1, cyclin fold, Cln2 fusion (human); method: yeast growth competition, sequencing; matrix: yeast; notes: weak parent motif; reference: not given; reading: higher = stronger binding
# Starting sequence: GMNC docking peptide (human); KNAKRNLSSEFAN
Substitution,normalised enrichment score
KNAKRNLSSIFAN [E10I],-0.0957
KLAKRNLSSEFAN [N2L],0.258
KNAKNNLSSEFAN [R5N],0.454
KNAKRNLSVEFAN [S9V],0.472
KDAKRNLSSEFAN [N2D],0.0906
KNAKRNLFSEFAN [S8F],0.337

# Other studies, line by line
Substance,target,assay,system,conditions,how to read,endpoint,value
"PhoQ, residues 284 288 289 292 302 303 GASLAW","PhoP, residues 12 14 15 18 19 IQSYL (Escherichia coli, UniProt P23836)","Sort-seq, measured: YFP reporter",E. coli,"PhoQ-PhoP variant library, together with: 10 µM Mg2+","reference: high Mg2+ state, higher = stronger signaling",fold induction,15.8

# For quick reference, copied from above (set 2):
Substitution,relative binding score [%]
L8I,12.6
V40Y,-6.98
R123L,8.4
